# Published values pooled from the literature.
# A part holds a random share of what one study measured. Substitutions count along the parent as printed.

# Block 1
# Target: TAR DNA-binding protein 43, full length, His tag (TARDBP, Homo sapiens, UniProt Q13148, residues 1-414)
# Technique: RNA Bind-n-Seq
# Form: RNA
# Matrix: in vitro
# Concentration: 20 nM
# Setting: 6-mer, flanks averaged, single round
# With: 150 mM LiCl
# Reference: input library
# Direction: higher = stronger binding
Oligonucleotide,6-mer enrichment (R)
UUCGUU,0.973
GACGCU,0.868
UAUGCU,1.01
CGGAAU,0.898
ACGAUG,0.87
AUGUAA,0.953
CGAAGA,0.826
GCUCGG,0.938

# Block 2
# Target: JDP2, bZIP domain (human)
# Technique: DHFR protein complementation
# Matrix: yeast
# Setting: single substitutions, most at no-binding floor
# Reference: wild-type JUN-FOS pair
# Direction: higher = stronger binding
# Starting sequence: JUN, bZIP domain (human); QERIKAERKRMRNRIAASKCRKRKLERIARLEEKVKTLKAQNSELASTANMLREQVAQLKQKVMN; partner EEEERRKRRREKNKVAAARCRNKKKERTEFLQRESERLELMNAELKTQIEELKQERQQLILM
Change,binding fitness [natural log]
S43K,0.361
E54R,0.206
N42P,-1.32
T37Y,0.272
E54V,0.177
R30V,0.413
E32W,0.12
A57L,0.194

# Block 3
# Target: Tyrosine-protein kinase SYK (SYK, Homo sapiens, UniProt P43405)
# Observed: enzyme activity
# Mode: inhibitor
# Concentration: 0.5 µM
# Reference: control
Compound,remaining activity [%]
CN(C)c1ccc(C=C2C(=O)Nc3ccccc32)cc1,90.4
O=C(Nc1cccc(Nc2cc(Nc3cccc(C(F)(F)F)c3)ncn2)c1)C1CC1,94.9
COc1cc2ncnc(Nc3ccc(F)c(Cl)c3)c2cc1OCCCN1CCOCC1,104
O=C1NC(=O)C(c2cn(CCCn3ccnc3)c3ccccc23)=C1Nc1ccccc1,99.9
O=C(O)c1ccc2c3c1cccc3c(=O)n1c3ccccc3nc21,96
CC(C)[C@H](CO)Nc1nc(Nc2cc(N)cc(Cl)c2)c2ncn(C(C)C)c2n1,81.1
OCC(O)CCON=C1C(c2c(O)[nH]c3ccccc23)=Nc2ccccc21 (centres unmarked),38.6
Cn1sc(=O)n(Cc2ccccc2)c1=O,92.2
Cc1cccc(-c2[nH]c(C(C)(C)C)nc2-c2ccc3c(c2)OCO3)n1,87
CNC(=O)c1cc(Oc2ccc(NC(=O)Nc3ccc(Cl)c(C(F)(F)F)c3)cc2)ccn1,101
Oc1ccc(-c2nc(-c3ccncc3)c(-c3ccc(F)cc3)[nH]2)cc1,101
Nc1[nH]nc2nc3ccccc3nc12,100
C#Cc1cccc(Nc2ncnc3cc(OCCOC)c(OCCOC)cc23)c1,108
Nc1ccc2ncnc(NCCc3ccc(Oc4ccccc4)cc3)c2c1,102
CO[C@H]1C[C@@H]2CC[C@@H](C)[C@@](O)(O2)C(=O)C(=O)N2CCCC[C@H]2C(=O)O[C@H]([C@H](C)C[C@@H]2CC[C@@H](O)[C@H](OC)C2)CC(=O)[C@H](C)/C=C(\C)[C@@H](O)[C@@H](OC)C(=O)[C@H](C)C[C@H](C)/C=C/C=C/C=C/1C,97.1
Cn1c2ccccc2c2c3c(c4c5ccccc5n(CCC#N)c4c21)CNC3=O,14.6

# Block 4
# Target: Serine/threonine-protein kinase D3 (PRKD3, Homo sapiens, UniProt O94806)
# Chain of UniProt O94806 (whole entry, looked up): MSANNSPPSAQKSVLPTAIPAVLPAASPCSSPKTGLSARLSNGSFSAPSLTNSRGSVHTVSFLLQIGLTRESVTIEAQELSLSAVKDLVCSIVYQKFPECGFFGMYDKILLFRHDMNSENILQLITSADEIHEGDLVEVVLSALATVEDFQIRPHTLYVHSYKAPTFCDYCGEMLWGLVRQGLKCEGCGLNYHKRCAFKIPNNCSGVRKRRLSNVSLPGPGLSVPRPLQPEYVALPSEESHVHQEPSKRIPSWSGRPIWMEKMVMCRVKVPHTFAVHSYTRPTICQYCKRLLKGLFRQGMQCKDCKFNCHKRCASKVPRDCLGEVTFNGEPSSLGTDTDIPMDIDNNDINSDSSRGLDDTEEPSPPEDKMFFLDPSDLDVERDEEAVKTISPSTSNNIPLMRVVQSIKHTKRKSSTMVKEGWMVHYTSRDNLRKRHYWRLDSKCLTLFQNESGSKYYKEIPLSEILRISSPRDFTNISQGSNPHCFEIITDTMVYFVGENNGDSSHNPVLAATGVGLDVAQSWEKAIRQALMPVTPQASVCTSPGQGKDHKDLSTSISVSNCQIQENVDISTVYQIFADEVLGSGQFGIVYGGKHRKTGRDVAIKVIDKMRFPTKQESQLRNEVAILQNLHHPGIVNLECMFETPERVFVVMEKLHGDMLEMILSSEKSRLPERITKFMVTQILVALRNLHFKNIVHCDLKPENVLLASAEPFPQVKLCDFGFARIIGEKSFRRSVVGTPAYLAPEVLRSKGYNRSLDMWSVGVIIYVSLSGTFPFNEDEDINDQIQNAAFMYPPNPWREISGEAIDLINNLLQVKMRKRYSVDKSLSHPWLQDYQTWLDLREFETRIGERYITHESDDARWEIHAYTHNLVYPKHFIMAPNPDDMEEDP
# Observed: cell-free assay
# Technique: competition with immobilised ligand
# Concentration: 1 µM
SMILES,remaining binding [%]
CS(=O)(=O)c1cc(C2(NC(=O)c3cncc4c3cnn4-c3ccc(F)cc3)CC2)ccn1,97
O=C(Nc1cccnn1)N1CC(C/C=C/c2cncc(Oc3ccc(C(F)(F)F)cn3)n2)C1,100
CS(=O)(=O)NCC[C@H](NC(=O)c1cncc2c1cnn2-c1ccc(F)cc1)c1ccnc(S(C)(=O)=O)c1,92

# Some of these lines once more (block 1):
Oligonucleotide,6-mer enrichment (R)
UAUGCU,1.01
CGAAGA,0.826
GCUCGG,0.938
CGGAAU,0.898
